Published values pooled from the literature.
Parts stem from different laboratories: compare values within a part only. Positions count from the first letter of the parent shown.

Sample 1
Target: CCND2, cyclin fold, Cln2 fusion (human)
Technique: yeast growth competition, sequencing
Sample: yeast
Notes: weak parent motif
Reference: not given
Direction: higher = stronger binding
Quantity: normalised enrichment score
Starting sequence: LLGL2 docking peptide (human); KSLKKSLRQSFRR; partner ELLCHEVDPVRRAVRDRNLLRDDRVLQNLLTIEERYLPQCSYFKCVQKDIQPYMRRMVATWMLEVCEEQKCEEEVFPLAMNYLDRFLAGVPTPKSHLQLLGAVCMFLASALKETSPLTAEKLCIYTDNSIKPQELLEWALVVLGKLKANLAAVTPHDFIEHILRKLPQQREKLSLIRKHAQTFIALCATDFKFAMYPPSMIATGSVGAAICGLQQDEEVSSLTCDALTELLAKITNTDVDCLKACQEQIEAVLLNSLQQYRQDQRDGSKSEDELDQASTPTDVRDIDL
S2A: 0.0593
R12A: -0.296
R8A: -0.235
L7A: -0.148
R13A: 0.19
K1A: -0.0583

Sample 2
Target: ABI1, truncated, D143A, DHFR fusion (Arabidopsis thaliana)
Technique: DHFR PCA, deep sequencing
Sample: yeast
Notes: methotrexate growth selection, single substitutions
With: (+)-ABA 58 µM
Reference: wild-type fitted maximum
Direction: higher = stronger binding
Quantity: relative binding score
Starting sequence: PYL1, truncated, DHFR fusion (Arabidopsis thaliana); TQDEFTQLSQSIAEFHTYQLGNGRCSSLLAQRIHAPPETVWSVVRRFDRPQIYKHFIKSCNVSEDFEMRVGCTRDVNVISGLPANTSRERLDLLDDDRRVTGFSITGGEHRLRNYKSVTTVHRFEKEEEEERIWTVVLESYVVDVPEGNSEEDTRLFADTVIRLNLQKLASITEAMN
H34R: 77.3%
T120Y: -9.32%
R74W: 0.671%
E89M: -2.15%
D3S: 84.7%
C72Q: 79.9%
R132C: 97.9%
H110K: 12.6%
E14L: 66.5%

Sample 3
Target: Sal-like protein 4, full length isoform A (SALL4, Homo sapiens, UniProt Q9UJQ4, residues 1-1053)
Chain of UniProt Q9UJQ4 (whole entry, looked up): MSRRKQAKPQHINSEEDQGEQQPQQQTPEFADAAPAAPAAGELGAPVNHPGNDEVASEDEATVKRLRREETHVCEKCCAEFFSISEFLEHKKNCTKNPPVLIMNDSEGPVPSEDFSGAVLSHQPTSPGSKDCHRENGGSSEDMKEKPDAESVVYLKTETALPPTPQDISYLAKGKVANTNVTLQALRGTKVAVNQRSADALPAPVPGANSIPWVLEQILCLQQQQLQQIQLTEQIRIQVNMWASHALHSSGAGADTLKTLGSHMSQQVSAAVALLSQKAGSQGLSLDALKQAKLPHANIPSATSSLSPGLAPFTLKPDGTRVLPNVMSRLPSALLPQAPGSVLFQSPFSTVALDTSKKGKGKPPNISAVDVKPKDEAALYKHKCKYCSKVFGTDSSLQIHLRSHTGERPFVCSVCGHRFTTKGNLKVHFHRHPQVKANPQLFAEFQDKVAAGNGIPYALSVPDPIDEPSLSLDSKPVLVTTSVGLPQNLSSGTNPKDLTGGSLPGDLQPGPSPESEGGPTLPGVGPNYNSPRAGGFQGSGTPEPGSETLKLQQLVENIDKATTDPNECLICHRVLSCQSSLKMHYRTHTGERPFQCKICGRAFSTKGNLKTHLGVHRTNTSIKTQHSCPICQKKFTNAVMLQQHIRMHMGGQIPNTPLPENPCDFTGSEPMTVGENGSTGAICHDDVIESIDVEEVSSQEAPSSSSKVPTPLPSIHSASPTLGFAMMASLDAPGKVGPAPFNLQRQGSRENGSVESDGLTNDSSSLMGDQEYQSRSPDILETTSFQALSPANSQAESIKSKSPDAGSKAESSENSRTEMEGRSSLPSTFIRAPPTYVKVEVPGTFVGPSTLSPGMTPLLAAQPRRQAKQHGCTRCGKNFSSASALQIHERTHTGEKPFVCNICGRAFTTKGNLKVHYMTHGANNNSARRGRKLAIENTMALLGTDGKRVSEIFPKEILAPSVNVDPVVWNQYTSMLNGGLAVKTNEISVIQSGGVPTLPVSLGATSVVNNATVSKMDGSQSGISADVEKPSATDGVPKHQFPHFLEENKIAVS
Technique: universal PBM
Form: double-stranded DNA, one strand shown
Sample: in vitro
Concentration: 600 nM
Notes: 8-mer, flanks averaged, mean of replicates
Direction: higher = stronger binding
Quantity: E-score
ATTAGCGA: 0.169
CTGTGTCA: -0.0722
TACAATCA: 0.169
CACAGAGG: -0.14
CAAACGCC: -0.208
CCTTAGAG: -0.225
ATGTCTCG: -0.0706
CCATCAAC: 0.18

Other studies, line by line
PhoQ, residues 284 288 289 292 302 303 AEGLLW
fold induction (PhoP, residues 12 14 15 18 19 VHSCL (Escherichia coli, UniProt P23836); Sort-seq, item: YFP reporter; E. coli; PhoQ-PhoP variant library, with: 10 µM Mg2+; reference: high Mg2+ state, higher = stronger signaling): 1.78

A few entries again (sample 2):
E89M: -2.15%
D3S: 84.7%
